{"data": "Measurements pooled from the literature", "note": "Every numbered part comes from another study and shows a few of its results, in no order. Several values in a cell are separate wells, animals, samples, runs or records.", "chain of UniProt Q15418 (whole entry, looked up)": "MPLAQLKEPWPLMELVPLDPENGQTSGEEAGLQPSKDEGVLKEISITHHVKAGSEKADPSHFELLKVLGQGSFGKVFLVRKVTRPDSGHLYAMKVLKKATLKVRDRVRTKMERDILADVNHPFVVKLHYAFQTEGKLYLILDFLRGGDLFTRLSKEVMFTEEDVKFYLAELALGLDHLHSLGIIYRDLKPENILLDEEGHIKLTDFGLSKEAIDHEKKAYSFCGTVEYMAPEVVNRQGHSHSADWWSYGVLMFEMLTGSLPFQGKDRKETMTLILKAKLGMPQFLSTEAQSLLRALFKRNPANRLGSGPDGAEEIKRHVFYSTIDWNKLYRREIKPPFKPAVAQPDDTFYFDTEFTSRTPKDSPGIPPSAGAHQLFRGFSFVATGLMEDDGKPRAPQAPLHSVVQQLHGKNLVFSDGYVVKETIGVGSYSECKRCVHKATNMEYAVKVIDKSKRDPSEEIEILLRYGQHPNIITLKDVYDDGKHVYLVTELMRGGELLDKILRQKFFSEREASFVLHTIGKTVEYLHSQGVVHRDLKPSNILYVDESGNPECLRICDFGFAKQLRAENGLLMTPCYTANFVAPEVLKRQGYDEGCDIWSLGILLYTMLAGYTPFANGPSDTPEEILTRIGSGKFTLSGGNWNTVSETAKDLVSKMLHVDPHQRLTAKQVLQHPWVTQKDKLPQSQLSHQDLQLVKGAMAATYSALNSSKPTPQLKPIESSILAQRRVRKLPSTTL", "chain of UniProt P43250 (whole entry, looked up)": "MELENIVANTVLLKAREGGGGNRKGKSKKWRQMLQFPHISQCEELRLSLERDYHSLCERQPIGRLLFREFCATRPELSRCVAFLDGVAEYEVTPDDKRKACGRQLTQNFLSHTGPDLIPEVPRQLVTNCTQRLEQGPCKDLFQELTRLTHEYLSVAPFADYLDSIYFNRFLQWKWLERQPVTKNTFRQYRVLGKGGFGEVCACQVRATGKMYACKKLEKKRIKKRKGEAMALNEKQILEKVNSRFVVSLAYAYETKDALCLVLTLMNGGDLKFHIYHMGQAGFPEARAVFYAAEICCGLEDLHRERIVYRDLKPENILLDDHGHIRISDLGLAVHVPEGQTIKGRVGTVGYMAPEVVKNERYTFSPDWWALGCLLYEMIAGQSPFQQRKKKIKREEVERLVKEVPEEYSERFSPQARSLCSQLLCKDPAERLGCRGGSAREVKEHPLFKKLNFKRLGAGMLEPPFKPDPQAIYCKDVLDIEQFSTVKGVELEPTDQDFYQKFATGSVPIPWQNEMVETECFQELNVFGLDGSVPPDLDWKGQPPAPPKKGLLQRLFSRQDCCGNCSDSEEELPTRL", "chain of UniProt O60285 (whole entry, looked up)": "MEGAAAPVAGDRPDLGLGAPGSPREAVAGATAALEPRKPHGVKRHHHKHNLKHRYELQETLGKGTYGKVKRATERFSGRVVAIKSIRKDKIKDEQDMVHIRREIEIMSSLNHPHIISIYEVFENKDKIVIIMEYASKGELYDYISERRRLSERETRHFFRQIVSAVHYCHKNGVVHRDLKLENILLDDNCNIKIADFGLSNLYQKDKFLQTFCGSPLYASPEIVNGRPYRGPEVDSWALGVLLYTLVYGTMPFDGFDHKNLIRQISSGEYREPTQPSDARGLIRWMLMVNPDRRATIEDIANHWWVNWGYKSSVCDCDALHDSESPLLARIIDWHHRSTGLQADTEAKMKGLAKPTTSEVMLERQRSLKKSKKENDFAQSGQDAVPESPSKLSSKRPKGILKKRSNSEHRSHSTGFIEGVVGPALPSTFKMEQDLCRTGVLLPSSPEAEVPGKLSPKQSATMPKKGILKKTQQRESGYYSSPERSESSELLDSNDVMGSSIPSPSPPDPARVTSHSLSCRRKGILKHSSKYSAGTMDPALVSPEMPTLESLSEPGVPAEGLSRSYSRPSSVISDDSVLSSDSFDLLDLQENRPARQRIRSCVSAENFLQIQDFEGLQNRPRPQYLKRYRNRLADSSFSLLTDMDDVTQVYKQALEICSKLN", "chain of UniProt P23443 (whole entry, looked up)": "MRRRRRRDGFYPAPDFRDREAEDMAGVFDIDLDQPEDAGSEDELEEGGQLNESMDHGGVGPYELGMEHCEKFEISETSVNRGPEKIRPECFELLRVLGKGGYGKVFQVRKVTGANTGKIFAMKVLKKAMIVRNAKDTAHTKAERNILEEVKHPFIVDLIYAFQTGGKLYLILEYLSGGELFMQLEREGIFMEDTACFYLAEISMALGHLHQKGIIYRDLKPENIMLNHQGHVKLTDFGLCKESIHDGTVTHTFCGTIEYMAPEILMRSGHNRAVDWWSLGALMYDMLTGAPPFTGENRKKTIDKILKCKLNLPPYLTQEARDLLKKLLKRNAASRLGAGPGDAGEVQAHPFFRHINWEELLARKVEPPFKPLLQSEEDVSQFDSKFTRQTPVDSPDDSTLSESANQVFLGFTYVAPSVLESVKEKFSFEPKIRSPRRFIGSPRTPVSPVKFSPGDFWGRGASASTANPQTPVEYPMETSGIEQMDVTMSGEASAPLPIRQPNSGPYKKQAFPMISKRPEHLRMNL", "chain of UniProt P29323 (whole entry, looked up)": "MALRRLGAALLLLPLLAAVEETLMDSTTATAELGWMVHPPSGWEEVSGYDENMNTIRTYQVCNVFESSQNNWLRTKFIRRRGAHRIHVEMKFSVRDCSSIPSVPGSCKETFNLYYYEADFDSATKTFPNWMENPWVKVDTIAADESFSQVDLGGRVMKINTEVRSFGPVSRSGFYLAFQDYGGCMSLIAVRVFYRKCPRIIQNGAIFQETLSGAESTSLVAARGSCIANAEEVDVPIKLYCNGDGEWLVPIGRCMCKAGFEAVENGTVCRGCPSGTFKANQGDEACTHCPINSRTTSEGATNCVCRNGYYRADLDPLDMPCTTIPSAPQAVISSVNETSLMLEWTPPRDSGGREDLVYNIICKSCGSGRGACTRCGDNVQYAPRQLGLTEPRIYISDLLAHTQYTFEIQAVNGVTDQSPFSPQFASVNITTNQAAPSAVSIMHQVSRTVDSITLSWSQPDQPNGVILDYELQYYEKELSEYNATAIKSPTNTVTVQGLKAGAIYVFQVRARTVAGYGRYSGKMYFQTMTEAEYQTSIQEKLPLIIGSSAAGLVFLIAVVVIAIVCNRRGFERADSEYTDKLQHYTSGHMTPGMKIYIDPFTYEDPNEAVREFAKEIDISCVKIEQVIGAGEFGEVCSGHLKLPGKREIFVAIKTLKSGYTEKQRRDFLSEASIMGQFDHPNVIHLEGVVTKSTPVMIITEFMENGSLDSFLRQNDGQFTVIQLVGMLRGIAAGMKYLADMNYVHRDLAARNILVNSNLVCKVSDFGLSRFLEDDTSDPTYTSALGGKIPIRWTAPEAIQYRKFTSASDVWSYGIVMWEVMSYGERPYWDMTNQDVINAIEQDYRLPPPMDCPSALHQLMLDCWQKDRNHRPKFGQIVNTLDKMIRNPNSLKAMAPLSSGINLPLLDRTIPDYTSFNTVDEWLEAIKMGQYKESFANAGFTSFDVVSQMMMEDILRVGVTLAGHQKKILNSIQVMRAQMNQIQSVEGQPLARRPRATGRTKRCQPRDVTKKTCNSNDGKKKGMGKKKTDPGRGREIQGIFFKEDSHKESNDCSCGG", "chain of UniProt P07333 (whole entry, looked up)": "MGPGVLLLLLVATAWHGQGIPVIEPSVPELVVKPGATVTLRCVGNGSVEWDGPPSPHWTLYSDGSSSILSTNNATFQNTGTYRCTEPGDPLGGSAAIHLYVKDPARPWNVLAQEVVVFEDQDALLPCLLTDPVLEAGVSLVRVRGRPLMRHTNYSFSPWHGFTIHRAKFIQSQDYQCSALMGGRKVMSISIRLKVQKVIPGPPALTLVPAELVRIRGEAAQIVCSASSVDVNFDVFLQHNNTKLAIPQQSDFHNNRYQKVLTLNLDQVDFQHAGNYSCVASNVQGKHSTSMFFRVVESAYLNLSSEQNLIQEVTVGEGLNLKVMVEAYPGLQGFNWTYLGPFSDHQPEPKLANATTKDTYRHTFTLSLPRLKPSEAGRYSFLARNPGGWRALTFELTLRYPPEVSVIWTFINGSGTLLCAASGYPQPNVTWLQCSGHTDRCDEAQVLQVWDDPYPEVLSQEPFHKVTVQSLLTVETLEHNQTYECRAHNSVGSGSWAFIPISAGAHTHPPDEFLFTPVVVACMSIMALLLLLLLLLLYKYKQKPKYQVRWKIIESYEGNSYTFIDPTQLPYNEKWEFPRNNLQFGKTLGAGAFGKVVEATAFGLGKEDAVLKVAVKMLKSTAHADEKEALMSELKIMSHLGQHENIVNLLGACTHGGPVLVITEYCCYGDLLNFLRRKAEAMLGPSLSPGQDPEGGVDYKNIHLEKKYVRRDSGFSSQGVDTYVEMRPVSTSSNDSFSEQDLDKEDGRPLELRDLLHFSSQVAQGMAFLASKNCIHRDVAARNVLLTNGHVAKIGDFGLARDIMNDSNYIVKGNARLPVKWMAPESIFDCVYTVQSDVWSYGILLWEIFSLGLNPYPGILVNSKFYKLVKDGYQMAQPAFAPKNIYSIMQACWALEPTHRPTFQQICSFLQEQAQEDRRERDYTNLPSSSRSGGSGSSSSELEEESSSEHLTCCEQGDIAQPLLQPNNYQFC", "chain of UniProt Q9P1W9 (whole entry, looked up)": "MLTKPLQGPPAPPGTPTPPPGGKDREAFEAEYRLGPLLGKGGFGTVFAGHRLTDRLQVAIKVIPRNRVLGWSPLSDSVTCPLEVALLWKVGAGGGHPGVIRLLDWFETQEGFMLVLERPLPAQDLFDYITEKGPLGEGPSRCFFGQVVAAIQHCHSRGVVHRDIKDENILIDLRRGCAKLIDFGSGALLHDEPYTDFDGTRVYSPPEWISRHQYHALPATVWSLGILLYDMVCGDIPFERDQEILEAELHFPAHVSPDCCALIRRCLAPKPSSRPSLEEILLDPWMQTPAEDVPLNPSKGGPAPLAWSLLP"}
{"data": "Block 1", "cell line": "normal-adjacent epithelium patient-derived organoids sample F", "technique": "CellTiter-Glo", "concentration": "1 µM", "baseline": "DMSO"}
{"SMILES": "Cc1cc2c(-c3ccco3)cnc(N[C@@H]3CCN(C)C[C@H]3C(=O)NC3CCCCC3)c2[nH]c1=O", "viability": "68.5%"}
{"SMILES": "CCCCNc1ncc(-c2ccc(CN3CCOCC3)cn2)c(NC2CCC(O)CC2)n1 (stereo not drawn)", "viability": "145% and 108%"}
{"SMILES": "CCC(=N\\O)/C(C)=C/c1ccc(F)cc1", "viability": "110% and 104%"}
{"SMILES": "COc1cc(Nc2ncc3c(n2)-c2ccc(Cl)cc2C(c2c(F)cccc2OC)=NC3)ccc1C(=O)O", "viability": "8%"}
{"SMILES": "CN1CCN(Cc2cc(NC(=O)c3ccc4c(c3)CN(c3ccccc3)CC4)cc(C(F)(F)F)c2)CC1", "viability": "84.5% and 70.5%"}
{"SMILES": "COCc1nc2cnc3cc(-c4c(C)noc4C)c(OC[C@H]4CCNC4)cc3c2n1[C@H](C)c1ccccc1", "viability": "54.3%"}
{"SMILES": "Cc1ncc(-c2cc(Cl)ccc2F)cc1-n1c(=O)n(CC(N)=O)c2ccccc21", "viability": "164% and 152%"}
{"SMILES": "CC(=O)NCC(=O)N1[C@@H]2CC[C@H]1c1ccc(Nc3ncc(C(F)(F)F)c(NC4CCC4)n3)cc12", "viability": "9% and 7.7%"}
{"SMILES": "O=C(Nc1cccnn1)N1CC(CC=Cc2cncc(Oc3ccc(C(F)(F)F)cn3)n2)C1", "viability": "115% and 101%"}
{"SMILES": "Cn1cc(-c2ccc3occ(-c4cccc(-c5ccncc5)c4)c3n2)cn1", "viability": "101%"}
{"SMILES": "Cl.Cl.NC1(c2ccc(-c3nc4ccn5c(=O)[nH]nc5c4cc3-c3ccccc3)cc2)CCC1", "viability": "123% and 65%"}
{"data": "Block 2", "SMILES": "O=C1Nc2ccccc2/C1=C\\c1c(Cl)[nH]c2ccccc12", "read-out": "enzyme activity", "action": "inhibitor", "concentration": "0.5 µM", "baseline": "control"}
{"target": "Protein kinase C gamma type (PRKCG, Homo sapiens, UniProt P05129)", "remaining activity": "89.2%"}
{"target": "Fibroblast growth factor receptor 4 (FGFR4, Homo sapiens, UniProt P22455)", "remaining activity": "96.9%"}
{"target": "Serine/threonine-protein kinase Sgk1 (SGK1, Homo sapiens, UniProt O00141)", "remaining activity": "116%"}
{"target": "G protein-coupled receptor kinase 6 (GRK6, Homo sapiens, UniProt P43250)", "remaining activity": "107%"}
{"target": "Serine/threonine-protein kinase pim-2 (PIM2, Homo sapiens, UniProt Q9P1W9)", "remaining activity": "106%"}
{"target": "Protein kinase C epsilon type (PRKCE, Homo sapiens, UniProt Q02156)", "remaining activity": "95.1%"}
{"target": "Cytoplasmic tyrosine-protein kinase BMX (BMX, Homo sapiens, UniProt P51813)", "remaining activity": "99.8%"}
{"target": "Glycogen synthase kinase-3 alpha (GSK3A, Homo sapiens, UniProt P49840)", "remaining activity": "99.3%"}
{"target": "Tyrosine-protein kinase CSK (CSK, Homo sapiens, UniProt P41240)", "remaining activity": "101%"}
{"target": "Ribosomal protein S6 kinase alpha-1 (RPS6KA1, Homo sapiens, UniProt Q15418)", "remaining activity": "105%"}
{"target": "Myosin light chain kinase, smooth muscle (MYLK, Homo sapiens, UniProt Q15746)", "remaining activity": "90.4%"}
{"target": "Beta-adrenergic receptor kinase 1 (GRK2, Homo sapiens, UniProt P25098)", "remaining activity": "98.9%"}
{"target": "Macrophage colony-stimulating factor 1 receptor (CSF1R, Homo sapiens, UniProt P07333)", "remaining activity": "97.2%"}
{"target": "Ephrin type-A receptor 7 (EPHA7, Homo sapiens, UniProt Q15375)", "remaining activity": "95.3%"}
{"target": "NUAK family SNF1-like kinase 1 (NUAK1, Homo sapiens, UniProt O60285)", "remaining activity": "86%"}
{"target": "Receptor-type tyrosine-protein kinase FLT3 (FLT3, Homo sapiens, UniProt P36888)", "remaining activity": "80.5%"}
{"target": "Ephrin type-B receptor 2 (EPHB2, Homo sapiens, UniProt P29323)", "remaining activity": "94.2%"}
{"target": "Aurora kinase C (AURKC, Homo sapiens, UniProt Q9UQB9)", "remaining activity": "89.5%"}
{"target": "SRSF protein kinase 3 (SRPK3, Homo sapiens, UniProt Q9UPE1)", "remaining activity": "97.1%"}
{"target": "Ribosomal protein S6 kinase beta-1 (RPS6KB1, Homo sapiens, UniProt P23443)", "remaining activity": "99.7%"}
{"data": "Block 3", "organism": "Sarcocystis neurona", "read-out": "parasite growth", "concentration": "10 µM", "time": "96 h"}
{"Compound": "CC1COc2c(N3CCN(C)CC3)c(F)cc3c(=O)c(C(=O)O)cn1c23 (stereo not drawn)", "inhibition [%]": -4}
{"Compound": "CNCCCN1c2ccccc2CCc2ccccc21", "inhibition [%]": -12.8}
{"Compound": "CCCNC(=O)NS(=O)(=O)c1ccc(Cl)cc1", "inhibition [%]": -16.1}
{"Compound": "O=C(c1ccc(OCCN2CCCCC2)cc1)c1c(-c2ccc(O)cc2)sc2cc(O)ccc12", "inhibition [%]": -4.4}
{"Compound": "CN(C)CCCN1c2ccccc2CCc2ccc(Cl)cc21", "inhibition [%]": -9.7}
{"Compound": "Nc1nc(F)nc2c1ncn2[C@@H]1O[C@H](CO)[C@@H](O)[C@@H]1O", "inhibition [%]": -9.3}
{"Compound": "O=C(CCNNC(=O)c1ccncc1)NCc1ccccc1", "inhibition [%]": -9.7}
{"Compound": "OC(Cn1cncn1)(Cn1cncn1)c1ccc(F)cc1F", "inhibition [%]": -5.2}
{"Compound": "C[C@@H]1O[C@@H](OC[C@H]2O[C@@H](Oc3c(-c4ccc(O)c(O)c4)oc4cc(O)cc(O)c4c3=O)[C@H](O)[C@@H](O)[C@@H]2O)[C@H](O)[C@H](O)[C@H]1O", "inhibition [%]": -9.8}
{"Compound": "CS(=O)(=O)OCCCCOS(C)(=O)=O", "inhibition [%]": -16.1}
{"Compound": "CCOC(=O)O[C@]1(C(=O)OCCl)CC[C@H]2[C@@H]3CCC4=CC(=O)C=C[C@]4(C)[C@H]3[C@@H](O)C[C@@]21C", "inhibition [%]": -11.1}
{"Compound": "CN1[C@@H]2CC[C@H]1C[C@@H](OC(=O)c1c[nH]c3ccccc13)C2", "inhibition [%]": -5.7}
{"Compound": "NS(=O)(=O)Cc1noc2ccccc12", "inhibition [%]": -10.2}
{"Compound": "C[C@@H]1C[C@H]2[C@@H]3CCC4=CC(=O)C=C[C@]4(C)[C@@]3(F)[C@@H](O)C[C@]2(C)[C@@]1(O)C(=O)CO", "inhibition [%]": -4.2}
{"Compound": "Cc1cccc(Nc2ccccc2C(=O)O)c1C", "inhibition [%]": -9.1}
{"Compound": "CC(=O)OCC(=O)NCCCOc1cccc(CN2CCCCC2)c1", "inhibition [%]": -15.7}
{"data": "Single results of other studies"}
{"Structure (SMILES)": "NC(=O)c1cccc(-c2cc(Nc3ccc(OC(F)(F)F)cc3)ncn2)c1", "cell line": "BCR-ABL-expressing Ba/F3", "read-out": "cell proliferation", "measurement": "GI50", "result": "520 nM"}
{"note": "Repeated from above (block 1):"}
{"SMILES": "Cn1cc(-c2ccc3occ(-c4cccc(-c5ccncc5)c4)c3n2)cn1", "viability": "101%"}
{"SMILES": "COc1cc(Nc2ncc3c(n2)-c2ccc(Cl)cc2C(c2c(F)cccc2OC)=NC3)ccc1C(=O)O", "viability": "8%"}
{"SMILES": "CCCCNc1ncc(-c2ccc(CN3CCOCC3)cn2)c(NC2CCC(O)CC2)n1 (stereo not drawn)", "viability": "145% and 108%"}
